Measurements collected from several papers.
Parts stem from different laboratories: compare values within a part only. Changes are numbered by the printed parent chain.

Sample 1
Target: ABI1, truncated, D143A, DHFR fusion (Arabidopsis thaliana, UniProt P49597)
Technique: DHFR PCA, dose-response
Sample: yeast
Setting: Hill fit, mean, not affinity
Added: (+)-ABA, dose series
Direction: lower = more sensitive
Starting sequence: PYL1, truncated, DHFR fusion (Arabidopsis thaliana, UniProt Q8VZS8); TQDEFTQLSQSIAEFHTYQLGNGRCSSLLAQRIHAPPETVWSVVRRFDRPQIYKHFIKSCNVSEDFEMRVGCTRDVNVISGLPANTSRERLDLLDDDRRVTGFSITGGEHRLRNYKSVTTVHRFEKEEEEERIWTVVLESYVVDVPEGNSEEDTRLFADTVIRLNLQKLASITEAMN
Substitution | ABA EC50 [µM]
A158T | 0.562
D95V | 119
T6E | 1.86
M68W | 22.6
A170W | 380
V142G | 31.4
R123W | 18.1
T106C | 5.54

Sample 2
Target: RING finger protein unkempt homolog, zinc fingers 1-6, SBP tag (UNK, Homo sapiens, UniProt Q9C0B0, residues 30-357)
Sequence of UniProt Q9C0B0 (30-357, looked up): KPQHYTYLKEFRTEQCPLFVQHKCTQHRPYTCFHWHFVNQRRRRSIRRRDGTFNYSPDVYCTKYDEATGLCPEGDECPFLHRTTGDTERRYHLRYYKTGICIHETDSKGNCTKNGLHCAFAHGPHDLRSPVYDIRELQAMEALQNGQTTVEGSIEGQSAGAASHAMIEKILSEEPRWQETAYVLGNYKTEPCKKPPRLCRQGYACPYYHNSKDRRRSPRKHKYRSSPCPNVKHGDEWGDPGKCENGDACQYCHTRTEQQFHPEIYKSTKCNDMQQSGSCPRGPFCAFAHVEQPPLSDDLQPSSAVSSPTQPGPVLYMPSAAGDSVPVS
Technique: RNA Bind-n-Seq
Molecule type: RNA
Sample: in vitro
Concentration: 100 nM
Setting: RNA with constant flanks, vertebrate orthologous sites, ends assumed
Baseline: input RNA pool
Direction: higher = stronger binding
Shared flanks, not repeated: GGGAGUUCUACAGUCCGACGAUC … CAACAGAGGAUUGAGCAUCA
Strand | bound/input enrichment [ratio]
ACCCGAAGCACGGACAGAAGGAAAACCUGCUCACUGUGUCCACCCGCACCACGACGUGGUCCGUGGAUUUUUUUUUUUUUUUCUGCCUCAGAGUCCCCAAAGCCUUUAAGCAAAAGUGGC | 0.725
AGAACCUAAACUUAUAGCAAAAGAGCCAAGCAGUAGUUUUUUUGUAAAUGGAAAAAUAAUUAGAUCCAGACUUUGUUUCCUUCAAUUUUAAAAAUAAAAAAUACCUCAGUGCUAUGUUUU | 0.686
AUCUCUCACUUUUUAGGUCCAAAAGUUGCUCUGAGUUUUCAAACAUUUUGCAGUUUAAAUGAUAUCUGCUGUAGCAGGUGUUCUUGCAGUGCCCCAUAGUCUGAGGUCUUCCCGAAGUGC | 0.56
CCCACACGCCGCUCCAGCUGCCUCGGGAGAGCCCUUCGCCUCUGGCUCUCCUUCCUGUGUUCAUUUUCCUCGGGGCCCUGACCCUGUUCAUCUCGUAUUUAUUUGUUCUUCACGCUGGCG | 0.736
ACCUUUUGUAGGCCAAAUACCCUCCUUCUACUGCUUCUGCCAACUGGAAGCACAGAAAACUAGAAUUUCAUUUUAUUUUGUUUAAAAAAAAAAAAAAAUUUGAUUUCUUGUAACAUCCAC | 0.675
CUUUAUGGGCCUCGAAGAGUUGAAAUAAUGGAAGAAGAAAAUGAACAGUAAUCUUCAAUUUAGUAUUUAUGCCUAGGUGUGAUAUAAAUUUUUUUGUUAUCAUUUCUAUAAUCUUGAGCU | 1.23
CAGGAGCUACAUAGACUGUUUGUGUUUUGGGAAAAUGAGCUUUGCUUUUUGAUAUUUAAAUAGGAUACUUUUAUAUGAUGGGUGCUCUGAGUGUGAAUGCAGCAAGCUCCAUUUCAGAGA | 1.31
UGUUCUCUUUUCAUAGGUAUCAUUGCCCAAUGCCGAAGAUUUUUUAUGUUCAAUUGACUGUAGGAAAUAAUGAGUUCUUUGGUGAAGGGAAGACUCGACAAGCUGCCAGACAUAAUGCUG | 0.532

Further values, each from its own experiment
P1: PafA, mature enzyme, eGFP fusion (Elizabethkingia meningoseptica, UniProt Q9KJX5); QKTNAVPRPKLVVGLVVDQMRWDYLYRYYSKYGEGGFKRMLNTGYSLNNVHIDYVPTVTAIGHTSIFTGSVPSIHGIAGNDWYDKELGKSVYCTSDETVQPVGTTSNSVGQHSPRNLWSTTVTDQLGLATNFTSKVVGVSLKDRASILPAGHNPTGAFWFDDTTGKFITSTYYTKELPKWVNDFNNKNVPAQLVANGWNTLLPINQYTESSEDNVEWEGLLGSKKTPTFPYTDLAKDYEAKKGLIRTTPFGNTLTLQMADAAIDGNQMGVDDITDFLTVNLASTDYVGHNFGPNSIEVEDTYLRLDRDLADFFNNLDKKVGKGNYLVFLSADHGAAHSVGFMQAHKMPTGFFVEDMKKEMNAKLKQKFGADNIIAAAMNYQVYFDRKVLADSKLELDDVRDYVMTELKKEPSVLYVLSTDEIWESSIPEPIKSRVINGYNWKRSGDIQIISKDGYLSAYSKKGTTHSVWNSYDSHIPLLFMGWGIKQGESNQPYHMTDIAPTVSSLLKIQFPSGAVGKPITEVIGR
P2: viral docking peptide; TSVRRALFTGGSD; partner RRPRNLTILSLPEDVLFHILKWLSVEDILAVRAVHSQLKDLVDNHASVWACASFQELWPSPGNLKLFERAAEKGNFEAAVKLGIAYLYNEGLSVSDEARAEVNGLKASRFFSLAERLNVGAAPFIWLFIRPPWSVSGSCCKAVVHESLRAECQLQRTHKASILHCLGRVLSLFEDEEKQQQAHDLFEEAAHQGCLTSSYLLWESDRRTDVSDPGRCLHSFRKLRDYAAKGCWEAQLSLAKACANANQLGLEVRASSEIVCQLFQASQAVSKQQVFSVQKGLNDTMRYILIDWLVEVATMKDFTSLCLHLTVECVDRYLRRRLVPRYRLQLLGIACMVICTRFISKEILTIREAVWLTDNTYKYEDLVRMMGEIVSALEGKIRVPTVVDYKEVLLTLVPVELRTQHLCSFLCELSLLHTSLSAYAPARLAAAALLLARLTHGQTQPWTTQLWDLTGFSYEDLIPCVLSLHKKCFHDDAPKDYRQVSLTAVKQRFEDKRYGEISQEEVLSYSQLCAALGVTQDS
Substitution | target | assay | test system | setting | how to read | endpoint | value
P1 S412V | inorganic phosphate, free oxyanion | microfluidic competitive inhibition | in vitro, cell-free expressed | not given, derived from inhibition constants, unchanged parent 615000 nM | lower = stronger binding | phosphate dissociation constant | 698 µM
P2 S12F | CCNF, cyclin fold, Cln2 fusion (human) | yeast growth competition, sequencing | yeast | strong parent motif | baseline: not given, higher = stronger binding | normalised enrichment score | 8.48

A few entries again (further values, each from its own experiment):
Substitution | target | assay | test system | setting | how to read | endpoint | value
P1 S412V | inorganic phosphate, free oxyanion | microfluidic competitive inhibition | in vitro, cell-free expressed | not given, derived from inhibition constants, unchanged parent 615000 nM | lower = stronger binding | phosphate dissociation constant | 698 µM
P2 S12F | CCNF, cyclin fold, Cln2 fusion (human) | yeast growth competition, sequencing | yeast | strong parent motif | baseline: not given, higher = stronger binding | normalised enrichment score | 8.48
